Measurements pooled from the literature.
“And” joins repeats or separate records; there may be more than shown. ± gives the spread as reported.
Target: Casein kinase I isoform alpha (CSNK1A1, Homo sapiens, UniProt P48729)
UniProt P48729, sequence (whole entry, looked up): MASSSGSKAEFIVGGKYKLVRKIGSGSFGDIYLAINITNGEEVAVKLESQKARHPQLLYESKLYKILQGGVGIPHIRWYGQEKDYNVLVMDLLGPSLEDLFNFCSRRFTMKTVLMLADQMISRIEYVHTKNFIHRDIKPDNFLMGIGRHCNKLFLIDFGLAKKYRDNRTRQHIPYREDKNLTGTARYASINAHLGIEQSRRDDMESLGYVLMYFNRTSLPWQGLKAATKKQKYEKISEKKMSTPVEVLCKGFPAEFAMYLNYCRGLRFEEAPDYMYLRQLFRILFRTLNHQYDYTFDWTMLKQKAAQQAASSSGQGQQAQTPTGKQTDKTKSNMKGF

| SMILES | test | system | setting | how to read | measurement | result |
| --- | --- | --- | --- | --- | --- | --- |
| CC[C@@H]1[C@H](F)C(=O)N[C@@H]1COc1nccc2cc(C(N)=O)c(OC)cc12 | ATP probe binding, KiNativ profiling, measured: Lys2 probe site | THP-1 cell lysate | 0.01 mM |  | inhibition | 2.1% |
| Cn1cc(-c2ccnc3ccccc23)c(-c2ccccn2)n1 | enzyme activity, ADP-Glo |  |  | relative to: IC50 over Yck2 IC50 | selectivity ratio | 3 |
| COc1ccc(F)cc1C(=O)NCc1ccc(-c2nn([C@@H](C)C(F)(F)F)c(N)c2C(N)=O)cc1 | kinase activity, inhibitor, HotSpot radiometric |  | 1000 nM, added: ATP at Km |  | remaining activity | 98.8 ± 4.1% |
| CNc1ncc2c(/C=C/C(=O)N3CCC(OC)CC3)nn(Cc3cccc(C(F)(F)F)c3)c2n1 | kinase activity, inhibitor |  | 1 µM | relative to: untreated control | remaining activity | 100% |
| c1coc(-c2n[nH]cc2-c2ccnc3ccccc23)c1 | enzyme activity, ADP-Glo |  |  | relative to: IC50 over Yck2 IC50 | selectivity ratio | 5 |
| Fc1ccc(-c2nn3cc(F)ccc3c2-c2ccncc2)cc1 | kinase activity, inhibitor, ADP-Glo |  | 0.8751 µM, 0.5 h |  | remaining activity | 22% and 45.3% |
| C=CC(=O)N1CCC[C@@H](n2nc(-c3ccc(Oc4ccccc4)cc3)c3c(N)ncnc32)C1 | kinase activity, inhibitor, HotSpot radiometric |  | 100 nM, added: ATP 10 µM |  | remaining activity | 78.8 ± 2.6% |
| c1ccc(-c2[nH]ccc2-c2ccnc3ccccc23)nc1 | enzyme activity, ADP-Glo |  |  | relative to: IC50 over Yck2 IC50 | selectivity ratio | > 6 |
| C=CC(=O)N1CCC(COCC(=O)N2CCN(c3nc(-c4cnc(N)nc4C(F)F)nc(N4CCOC[C@@H]4C)n3)CC2)CC1 | KINOMEscan |  | 1 µM |  | remaining binding | 97% |
| Fc1ccc(-c2nc3cc(F)ccn3c2-c2ccncc2)cc1 | kinase activity, inhibitor, ADP-Glo |  | 0.273 µM, 0.5 h |  | remaining activity | 46.7% and 20.2% |

Excerpt of the above:
| SMILES | test | system | setting | how to read | measurement | result |
| --- | --- | --- | --- | --- | --- | --- |
| c1ccc(-c2[nH]ccc2-c2ccnc3ccccc23)nc1 | enzyme activity, ADP-Glo |  |  | relative to: IC50 over Yck2 IC50 | selectivity ratio | > 6 |
